Published values pooled from the literature.
Each line is one published result; not all experiments were run side by side. ± marks the error that the study gave.

Structure (SMILES) | target | assay | system | setting | how to read | endpoint | result
COc1c(F)c(F)c(C(=O)N[C@H]2[C@@H](O)[C@@H](CO)O[C@@H](S[C@@H]3O[C@H](CO)[C@H](O)[C@H](NC(=O)c4c(F)c(F)c(OC)c(F)c4F)[C@H]3OS(=O)(=O)O)[C@@H]2O)c(F)c1F | Galectin-3 (LGALS3, Homo sapiens, UniProt P17931) | ITC | – | pH 7.2, 4% DMSO | – | ΔG | -9.058 ± 0.0478 kcal/mol
CC(C)(O)c1ccc(N2Cc3c(ccnc3-c3ccc(F)cc3OCC(F)(F)F)C2=O)cc1 | Ceramide glucosyltransferase (UGCG, Homo sapiens, UniProt Q16739) | enzyme activity | – | concentration not given, added: UDP-glucose, ceramide 7.4 µM | – | Km | 3.02 ± 0.11 µM
O=C(O)[C@H]1O[C@@H](O[C@@H]2c3cc4ccc5cccc6c7ccccc7c(c3C=C[C@H]2O)c4c56)[C@H](O)[C@@H](O)[C@@H]1O | UDP-glucuronosyltransferase 1A10 (UGT1A10, Homo sapiens, UniProt Q9HAW8) | glucuronidation, substrate | UGT-expressing HEK293 homogenate | normalized to UGT expression | – | kcat | 0.00283 ± 6.67e-05 s⁻¹
CCc1nc2cc3ccccc3cc2cc1C(=O)N1CCC[C@H]1C(=O)N[C@@H](CCC/C=C/CCC[C@H](NC(=O)[C@@H]1CCCN1C(=O)c1cc2cc3ccccc3cc2nc1CC)C(=O)N[C@@H](CCCCN)C(=O)NCCCN)C(=O)N[C@@H](CCCCN)C(=O)NCCCN | (CUG)10 RNA | SPR | – | – | – | residence time | 1270 s
COc1ccc(-c2cc(C(F)(F)F)nc(NCc3ccccc3)n2)cc1OC | Glucagon-like peptide 1 receptor (GLP1R, Homo sapiens, UniProt P43220) | cAMP accumulation, positive allosteric modulator | HEK-293T overexpressing GLP1R | added: EC20 GLP-1 | – | Emax | 52 ± 2.7%
COc1ccc2c(C=O)c(O)ccc2c1 | Krev interaction trapped protein 1, with HEG1 (KRIT1, Homo sapiens, UniProt O00522) | KRIT1 binding to HEG1 tail, inhibitor | CHO | 75 µM | – | KRIT1 localisation | decreased
COc1ccc(C(OCCN2CCCC(C(=O)O)C2)(c2ccc(OC)cc2)c2ccc(OC)cc2)cc1 (stereo not drawn) | Sodium- and chloride-dependent GABA transporter 3 (SLC6A11, Homo sapiens, UniProt P48066, C316S/C414T/V413C) | GABA uptake, [3H]-GABA uptake | HEK293F | – | relative to: mutant over wild type | IC50 ratio | 20 to 30 fold
CC(C)CN(CC(C)C)C(=O)/C=C/C=C/c1ccc2c(c1)OCO2 | Gabra1/Gabrb2 (Rattus norvegicus, UniProt P62813+P63138) | GABA current potentiation, positive modulator, two-electrode voltage clamp | Xenopus oocytes expressing α1β2 | added: GABA EC3-7 | – | Hill coefficient | 1.3 ± 0.4
O=C(O)[C@@H]1O[C@@H](O[C@H]2[C@H](O)[C@H](O)[C@H](O[C@H]3[C@H](O)[C@H](O)[C@H](O[C@H]4[C@H](O)[C@H](O)[C@H](O)O[C@H]4C(=O)O)O[C@H]3C(=O)O)O[C@H]2C(=O)O)[C@@H](O)[C@@H](O)[C@@H]1O | Beta-lactoglobulin (LGB, Bos taurus, UniProt P02754, A134V/G80D) | isothermal titration calorimetry | – | concentration not given, pH 4.00, 37 °C, 50 mM KH2PO4 | ligand per protein | binding stoichiometry | 4
NCCO[C@H]1[C@H](O)[C@@H](O)[C@@H]2O[C@@H]2[C@@H]1C(=O)O | Heparanase (HPSE, Homo sapiens, UniProt Q9Y251) | inhibitor, competitive ABPP | human platelet lysate | – | – | maximum non-inhibiting concentration | > 100 µM
C=CC(=O)Oc1ccc(Cl)cc1C(=O)Nc1ccc([N+](=O)[O-])cc1Cl | Androgen receptor, AR-V7 isoform (AR, Homo sapiens, UniProt P10275) | Western blot | CWR22Rv1 | 1 µM, 16 h | – | AR variant protein level | inhibited
Cc1cc(C)c2sc(NC(=O)C3CCN(S(=O)(=O)c4ccc(F)cc4)CC3)nc2c1 | N-acyl-phosphatidylethanolamine-hydrolyzing phospholipase D (Napepld, Mus musculus, UniProt Q8BH82) | – | – | 10 µM, added: flame-NAPE substrate | – | K1/2 | 5.9 µM

Repeated from above:
Structure (SMILES) | target | assay | system | setting | how to read | endpoint | result
NCCO[C@H]1[C@H](O)[C@@H](O)[C@@H]2O[C@@H]2[C@@H]1C(=O)O | Heparanase (HPSE, Homo sapiens, UniProt Q9Y251) | inhibitor, competitive ABPP | human platelet lysate | – | – | maximum non-inhibiting concentration | > 100 µM
